Experimental data from different studies.
Lines come from different studies, so protocols differ. Several values in a cell are separate wells, animals, samples, runs or records.

The inhibition of Nc1ncnc2c([C@@H]3N[C@H](CO)[C@@H](O)[C@H]3O)c[nH]c12 is reported as 0% (Marburg marburgvirus; viral RNA in supernatant; HeLa, Musoke; 0.8 µM, 24 h).
`GTILTRPLLESELVI` gave a responding donors of 17% (human CD4 T cells; AIM; peptide).
C[C@H](NC(=O)Cc1cc(F)cc(F)c1)C(=O)N[C@@H]1C(=O)N(C)c2ccccc2-c2ccccc21 has an inhibition of 1.06% (Replicase polyprotein 1ab, main protease (rep, Severe acute respiratory syndrome coronavirus 2, UniProt P0DTD1); viral replication, Gluc reporter; SARS-CoV-2; 20 µM).
With `IPIQASLPF` the positive donors was 2 donors and 1 donors (human PBMC CD8+ T cells; T cell response; peptide).
CC[C@H](C)[C@H](NC(=O)[C@H](CC(C)C)NC(=O)[C@H](Cc1c[nH]c2ccccc12)NC(=O)[C@H](CCC(N)=O)NC(=O)[C@@H](NC(=O)[C@H](Cc1ccccc1)NC(=O)[C@H](C)NC(=O)[C@H](CCCCNC(=O)COCCOCCNC(=O)COCCOCCNC(=O)CC[C@H](NC(=O)CCCCCCCCCCCCCCCCCCC(=O)O)C(=O)O)NC(=O)[C@H](CCC(N)=O)NC(=O)[C@H](C)NC(=O)[C@@H](NC(=O)[C@H](CCCCN)NC(=O)[C@H](CC(=O)O)NC(=O)[C@H](CC(C)C)NC(=O)C(C)(C)NC(=O)[C@@H](NC(=O)[C@H](CO)NC(=O)[C@H](Cc1ccc(O)cc1)NC(=O)[C@H](CC(=O)O)NC(=O)[C@H](CO)NC(=O)[C@@H](NC(=O)[C@H](Cc1ccccc1)NC(=O)[C@@H](NC(=O)CNC(=O)[C@H](CCC(=O)O)NC(=O)C(C)(C)NC(=O)[C@@H](N)Cc1ccc(O)cc1)[C@@H](C)O)[C@@H](C)O)[C@@H](C)CC)[C@@H](C)CC)C(C)C)C(=O)N[C@@H](C)C(=O)NCC(=O)NCC(=O)N1CCC[C@H]1C(=O)N[C@@H](CO)C(=O)N[C@@H](CO)C(=O)NCC(=O)N[C@@H](C)C(=O)N1CCC[C@H]1C(=O)N1CCC[C@H]1C(=O)N1CCC[C@H]1C(=O)N[C@@H](CO)C(N)=O — result for “adverse events (vomiting)”: 33.3% (healthy subjects, single ascending dose; 5.0 mg).
Under “any TEAE, mild severity”, Cn1cnc(Cn2c(=O)[nH]/c(=N\c3cc4cn(C)nc4cc3Cl)n(Cc3cc(F)c(F)cc3F)c2=O)n1 is recorded as 12.5% (human, moderate renal impairment; oral, 375 mg).

A few entries again:
Under “any TEAE, mild severity”, Cn1cnc(Cn2c(=O)[nH]/c(=N\c3cc4cn(C)nc4cc3Cl)n(Cc3cc(F)c(F)cc3F)c2=O)n1 is recorded as 12.5% (human, moderate renal impairment; oral, 375 mg).
